Published values gathered from unrelated publications.
Numbered parts are unrelated; each lists some results of a single study. Several values in a cell are separate wells, animals, samples, runs or records.
Chain of UniProt P41279 (whole entry, looked up): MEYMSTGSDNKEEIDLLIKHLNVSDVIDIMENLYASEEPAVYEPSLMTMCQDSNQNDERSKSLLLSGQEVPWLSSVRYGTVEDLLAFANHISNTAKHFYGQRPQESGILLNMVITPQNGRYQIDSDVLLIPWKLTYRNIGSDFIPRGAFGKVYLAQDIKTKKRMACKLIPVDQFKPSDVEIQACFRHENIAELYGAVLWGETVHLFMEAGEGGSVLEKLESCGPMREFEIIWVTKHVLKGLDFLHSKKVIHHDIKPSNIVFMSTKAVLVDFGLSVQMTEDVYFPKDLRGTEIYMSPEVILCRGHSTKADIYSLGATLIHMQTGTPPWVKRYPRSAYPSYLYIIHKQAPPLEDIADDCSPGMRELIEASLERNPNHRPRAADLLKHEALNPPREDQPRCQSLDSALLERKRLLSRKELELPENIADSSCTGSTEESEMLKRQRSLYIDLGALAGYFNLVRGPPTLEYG

Set 1 — observed: enzyme activity; mode: inhibitor; tested at: 10 µM
Target: Calcium/calmodulin-dependent protein kinase type II subunit alpha (CAMK2A, Homo sapiens, UniProt Q9UQM7)
Chain of UniProt Q9UQM7 (whole entry, looked up): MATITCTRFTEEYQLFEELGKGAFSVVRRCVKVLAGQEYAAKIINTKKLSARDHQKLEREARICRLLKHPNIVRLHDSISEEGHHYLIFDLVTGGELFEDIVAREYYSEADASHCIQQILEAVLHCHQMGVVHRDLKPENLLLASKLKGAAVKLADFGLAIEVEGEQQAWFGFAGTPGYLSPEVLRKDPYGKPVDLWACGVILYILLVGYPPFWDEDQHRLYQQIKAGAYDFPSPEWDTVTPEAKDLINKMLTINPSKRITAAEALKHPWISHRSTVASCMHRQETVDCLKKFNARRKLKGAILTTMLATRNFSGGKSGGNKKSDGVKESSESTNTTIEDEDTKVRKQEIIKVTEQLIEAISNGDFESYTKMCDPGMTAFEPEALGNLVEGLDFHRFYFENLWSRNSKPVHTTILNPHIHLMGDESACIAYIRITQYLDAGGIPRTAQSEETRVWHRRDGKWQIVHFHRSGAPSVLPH
Structure (SMILES) | inhibition [%]
C=C(C)[C@H](CC=C(C)C)Cc1c(O)cc(OC)c2c1O[C@H](c1ccc(O)cc1O)[C@@H](O)C2=O | -22
C[C@@H]1O[C@@H](OC[C@H]2O[C@@H](Oc3c(-c4ccc(O)cc4)oc4cc(O[C@@H]5O[C@@H](C)[C@H](O)[C@@H](O)[C@H]5O)cc(O)c4c3=O)[C@H](O)[C@@H](O)[C@H]2O)[C@H](O)[C@H](O)[C@H]1O | -10
CC[C@@H](C(=O)[C@@H](C)[C@@H](O)[C@H](C)CCc1ccc(C)c(O)c1C(=O)O)[C@H]1O[C@](CC)([C@H]2CC[C@](O)(CC)[C@H](C)O2)C[C@@H]1C | 30
CCCCCC[C@@H](O)C/C=C\CCCCCCCC(=O)O | -26
COc1cc(/C=C/C(=O)OC(C)C)ccc1O | 0
CCCCCCCC/C=C/CCCCCCCC(=O)O | 19

Set 2 — observed: binding; method: radioligand binding; tested at: 10 µM
Target: D(2) dopamine receptor (DRD2, Homo sapiens, UniProt P14416)
Chain of UniProt P14416 (whole entry, looked up): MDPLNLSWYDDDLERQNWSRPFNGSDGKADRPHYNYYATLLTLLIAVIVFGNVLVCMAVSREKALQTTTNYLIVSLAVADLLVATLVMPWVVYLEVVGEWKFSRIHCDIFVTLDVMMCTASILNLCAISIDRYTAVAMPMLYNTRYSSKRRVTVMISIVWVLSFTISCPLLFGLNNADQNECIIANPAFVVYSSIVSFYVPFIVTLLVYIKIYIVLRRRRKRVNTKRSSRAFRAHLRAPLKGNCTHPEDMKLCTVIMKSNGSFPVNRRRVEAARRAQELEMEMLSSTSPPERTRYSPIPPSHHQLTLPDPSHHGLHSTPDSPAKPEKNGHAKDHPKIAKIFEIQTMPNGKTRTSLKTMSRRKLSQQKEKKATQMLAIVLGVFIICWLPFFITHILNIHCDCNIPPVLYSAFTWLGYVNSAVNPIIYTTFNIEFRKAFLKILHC
Compound | inhibition [%]
C[C@H](NC(=O)c1cnc2n1[C@](C)(Cc1ccc(C#N)cc1)C(=O)N2c1cc(Cl)c(F)c(Cl)c1)C(=O)NC1(c2ccccn2)CC1 | 7.62
CN([C@@H]1CCc2c(CC(=O)O)c3cc(S(C)(=O)=O)ccc3n2C1)S(=O)(=O)c1ccc(F)cc1 | -3.84
O=C(Nc1cnc(Oc2ccc(F)cc2)nc1)N1CCc2ncccc2[C@@H]1c1ccc(F)cc1 | 1.65
CCCOc1ccc([C@H]2[C@H](C(=O)O)[C@@H](c3ccc4c(c3)OCO4)CN2CC(=O)Nc2c(CC)cccc2CC)cc1 | -11.9
CNC(=O)Nc1ccc2c(c1)[C@]1(CC2)OC(=O)N(CC(=O)N(Cc2ccc(F)cc2)[C@@H](C)C(F)(F)F)C1=O | -8.75
COc1nc2ccc([C@@](O)(c3ccccc3)C3CCN(C(C)=O)CC3)cc2c(Cl)c1Cc1ccc(-n2cccn2)cc1 | 12.5
O=C(Nc1ccc(-n2nc(-c3cccnc3)cc2C(F)(F)F)cn1)c1ccc(-c2ccccc2)c(F)c1 | -9.24
O=C(Nc1cccnn1)N1CCC(=Cc2cccc(Oc3ccc(C(F)(F)F)cn3)c2)CC1 | 1.84
O=C1CCc2cc(Nc3cc(OC4CCOCC4)c([N+](=O)[O-])cc3Cl)ccc2N1 | 2.86
Cc1c(N2CCCC2)nc2ccc(Br)cc2c1C(=O)NC[C@H](CCC(=O)O)c1ccccc1Cl | 9.71
CS(=O)(=O)NCC[C@H](NC(=O)c1cncc2c1cnn2-c1ccc(F)cc1)c1ccnc(S(C)(=O)=O)c1 | -5.26
CCOCCn1cc(C(=O)Nc2ccc(-n3nc(-c4cccnc4)cc3C(F)(F)F)cn2)ccc1=O | -5.62
CC(=O)c1c(NS(C)(=O)=O)c2cc(-c3ccc(Cl)cc3)c(-c3ccc(Cl)cc3Cl)nc2n(C)c1=O | 2.43
Cc1c[nH]c2nccc(Oc3c(F)cc(Nc4cc(Cl)nc(N)n4)cc3F)c12 | -4.56
CC(=O)Nc1c(F)cc(C(=O)N[C@H]2CC[C@H](O)CC2)cc1O[C@@H](C)c1ccccc1 | 25.8
Cc1nc(Cc2cccc(C(F)(F)F)c2)sc1-c1ccc(C(N)=O)nc1 | -5.26
C[C@@H]1CN(c2cc(-c3nn(C)c4ccc(OC5(C)CC5)cc34)ncn2)C[C@H](C)O1 | -0.18
CNC(=O)c1ccc(Nc2ncc(C(F)(F)F)c(NCc3nccnc3N(C)S(C)(=O)=O)n2)cc1 | -33.3
COCc1nc2cnc3cc(-c4c(C)noc4C)c(OC[C@H]4CCNC4)cc3c2n1[C@H](C)c1ccccc1 | 27.7
O[C@]1(C(F)(F)F)CCCC[C@H]1Nc1ccc(F)cc1 | -22.1
Nc1c(C(=O)NCc2ccc(C(=O)NCCCC3CCCCC3)cc2)cnn1-c1ccccc1 | 15
Cc1c(NC(=O)c2cc(C(N)=O)nc3cc(F)ccc23)c(C(F)(F)F)nn1Cc1ccc(C(C)(C)C)cc1 | 18
CN1C(=O)[C@@H](N2CCc3cn(Cc4ccccc4)nc3C2=O)COc2ccccc21 | -5.46
O=C(O)c1cc(-c2ccc(C3CCNCC3)cc2)c2ccc(-c3ccc(C(F)(F)F)cc3)cc2c1 | -20.2
O=C(Nc1cccnn1)N1CC(CC=Cc2cncc(Oc3ccc(C(F)(F)F)cn3)n2)C1 | 13.7

Set 3 — organism: Sarcocystis neurona; observed: parasite growth; tested at: 10 µM; time: 96 h; setting: first screen
Structure (SMILES) | inhibition [%]
CN1[C@@H]2C[C@@H](OC(=O)[C@H](CO)c3ccccc3)C[C@H]1[C@@H]1O[C@@H]12 | -14.3
Cc1cccc(C)c1NC(=O)C(C)N (centres unmarked) | 4.3
CCn1cc(C(=O)O)c(=O)c2cc(F)c(N3CCN(C)CC3)cc21 | -8.3
CC1(C)S[C@@H]2[C@H](NC(=O)COc3ccccc3)C(=O)N2[C@H]1C(=O)O | 10
CC(COc1ccccc1)NC(C)C(O)c1ccc(O)cc1 (centres unmarked) | -2.4
Cc1ccsc1C(=CCCN1CCC[C@@H](C(=O)O)C1)c1sccc1C | -6
C=CCc1ccc(O)c(-c2ccc(O)c(CC=C)c2)c1 | 6.4

Set 4 — observed: RNA clamping; method: fluorescence polarization; tested at: concentration not given; with: FAM-labelled poly r(AG)8 RNA
Target: Eukaryotic initiation factor 4A-III (Homo sapiens, UniProt P38919)
Chain of UniProt P38919 (whole entry, looked up): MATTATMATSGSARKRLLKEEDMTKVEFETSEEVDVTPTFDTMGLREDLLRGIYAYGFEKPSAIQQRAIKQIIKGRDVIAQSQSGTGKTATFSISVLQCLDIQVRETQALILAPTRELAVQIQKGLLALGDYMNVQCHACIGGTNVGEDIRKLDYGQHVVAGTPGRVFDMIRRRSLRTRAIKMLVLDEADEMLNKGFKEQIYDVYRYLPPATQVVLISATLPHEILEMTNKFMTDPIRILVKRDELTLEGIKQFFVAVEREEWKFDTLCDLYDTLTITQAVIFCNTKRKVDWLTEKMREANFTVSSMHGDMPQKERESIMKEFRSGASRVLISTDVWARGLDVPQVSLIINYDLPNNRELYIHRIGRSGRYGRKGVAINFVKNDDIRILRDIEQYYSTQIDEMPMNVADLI
Structure (SMILES) | fluorescence polarization change [mP]
C=CCn1c(-c2ccccc2)nc2c(c1=O)[C@@H](c1ccccc1)[C@]1(c3ccc(OC)cc3)Oc3cc(OC)cc(OC)c3[C@]21O | 3.1
C#CCOc1ccc(-c2nc(OCC#C)c3c(n2)[C@@]2(O)c4c(OC)cc(OC)cc4O[C@@]2(c2ccc(OC)cc2)[C@@H]3c2ccccc2)cc1 | -0.1
COc1cc(OC)c2c(c1)O[C@@]1(c3ccc(C#N)cc3)[C@H](c3ccccc3)[C@@H](CN(C)C)[C@@H](O)[C@@]21O | 46.4
CCOC(=O)COc1nc(-c2ccccc2)nc2c1[C@@H](c1ccccc1)[C@]1(c3ccc(OC)cc3)Oc3cc(OC)cc(OC)c3[C@]21OCC(=O)OCC | 5.6
COc1cc(F)cc2c1[C@]1(O)[C@H](O)[C@@H](C#N)[C@H](c3ccccc3)[C@]1(c1ccc(Br)cc1)O2 | 3.5

Set 5
SMILES: CO[C@@H]1[C@@H](OC(N)=O)[C@@H](O)[C@H](Oc2ccc3c(O)c(NC(=O)c4ccc(O)c(CC=C(C)C)c4)c(=O)oc3c2C)OC1(C)C
cell line | test | conditions | scale | viability
MDA-MB-436 PARPi-resistant | CellTiter-Glo | 50 µM, 6 days | baseline: untreated | 35% and 50.8% and 42.5% and 30.5% and 41.6% and 47.9%
MDA-MB-436 PARPi-resistant | CellTiter-Glo | 6.3 µM, 6 days | baseline: untreated | 121% and 101% and 119% and 106% and 112%
RPE-1 BRCA1-/- PARPi-resistant R4 | CellTiter-Glo | 150 µM, 6 days |  | 61.1% and 55%
RPE-1 wild type | CellTiter-Glo | 25 µM, 6 days | baseline: untreated | 97.6% and 96.1%
MDA-MB-436 | cell growth or viability, ATP luminescence | 50 µM, 6 days |  | 27.2%
UWB1.289 parental | CellTiter-Glo | 50 µM, 6 days | baseline: untreated | 64.1%
RPE-1 wild type | CellTiter-Glo | 50 µM, 6 days | baseline: untreated | 103% and 102%
RPE-1 BRCA1-/- PARPi-resistant R4 | CellTiter-Glo | 150 µM, 6 d |  | 64.1%
RPE-1 BRCA1-/- PARPi-resistant R3 | CellTiter-Glo | 25 µM, 6 days |  | 77.9% and 95.7%

Other studies, line by line
Compound | target | test | conditions | measurement | value
N#Cc1cnc2cnc(NCc3cccnc3)cc2c1Nc1ccc(F)c(Cl)c1 | Mitogen-activated protein kinase kinase kinase 8 (MAP3K8, Homo sapiens, UniProt P41279) | cell-free assay | 0.5 µM | remaining signal | 79.1%
